Published values pooled from the literature.
Lines come from different studies, so protocols differ.

Structure (SMILES) | organism | test | test system | setting | MIC
Oc1c(Br)ccc2cccnc12 | Saccharomyces cerevisiae | microbial growth, agar dilution | ATCC2601 | – | 35.7 µM
CC[C@@H](C)[C@@H](NC(=O)[C@@H](C)NC(=O)[C@@H](CCCCN)NC(=O)[C@@H](CC(C)C)NC(=O)[C@@H](CC(C)C)NC(=O)[C@H](NC(=O)[C@@H](CCCCN)NC(=O)[C@@H](CC(C)C)NC(=O)[C@@H](C)NC(=O)[C@@H](CCCCN)NC(=O)[C@@H](CCCCN)NC(=O)[C@@H](CCCCN)NC(=O)[C@@H](C)NC(=O)[C@@H](CCCCN)NC(=O)[C@@H](CO)NC(=O)[C@@H](Cc1ccccc1)NC(=O)[C@H](NC(=O)[C@@H](CCCCN)NC(=O)[C@@H](CC(C)C)NC(=O)[C@@H](Cc1ccccc1)NC(=O)[C@@H](CO)NC(=O)[C@@H](CCCCN)NC(=O)[C@@H](Cc1c[nH]c2ccccc12)NC(=O)[C@@H](CCCCN)NC(C)=O)[C@H](C)O)[C@H](C)O)C(=O)N[C@H](CO)C(=O)N[C@H](CCCCN)C(N)=O | Acinetobacter baumannii | – | 985, Mueller-Hinton broth | 24 h, 37 °C | 0.7 µM
C[C@@H](c1ccn(Cc2cccc(Cl)c2F)n1)[C@](O)(Cn1cnnn1)c1ccc(F)cc1F | Candida tropicalis | growth, broth microdilution | 2718 | 24 h, 30 °C, ≥50% inhibition | < 0.008 µg/mL
C=CCN(CC)Cc1cc(N(C)C)c2c(c1O)C(=O)C1=C(O)[C@]3(O)C(=O)C(C(N)=O)=C(O)[C@@H](N(C)C)[C@@H]3C[C@@H]1C2 | Streptococcus pneumoniae | microbial growth, broth dilution | – | – | 0.125 µg/mL
C[C@@H](c1ccn(Cc2c(F)cc(Cl)cc2F)n1)[C@](O)(Cn1cnnn1)c1ccc(F)cc1F | Candida tropicalis | growth, broth microdilution | 2718 | 24 h, 30 °C, ≥50% inhibition | < 0.008 µg/mL
CC[C@@H](C)[C@@H](NC(=O)[C@@H](C)NC(=O)[C@@H](CCCCN)NC(=O)[C@@H](CC(C)C)NC(=O)[C@@H](C)NC(=O)[C@H](NC(=O)[C@@H](CCCCN)NC(=O)[C@@H](CC(C)C)NC(=O)[C@H](NC(=O)[C@@H](CCCCN)NC(=O)[C@@H](CCCCN)NC(=O)[C@@H](CCCCN)NC(=O)[C@@H](C)NC(=O)[C@@H](CCCCN)NC(=O)[C@@H](CO)NC(=O)[C@@H](Cc1ccccc1)NC(=O)[C@H](NC(=O)[C@@H](CCCCN)NC(=O)[C@@H](CC(C)C)NC(=O)[C@@H](Cc1ccccc1)NC(=O)[C@@H](CO)NC(=O)[C@@H](CCCCN)NC(=O)[C@@H](Cc1c[nH]c2ccccc12)NC(=O)[C@@H](CCCCN)NC(C)=O)[C@H](C)O)C(C)C)[C@H](C)O)C(=O)N[C@H](CO)C(=O)N[C@H](CCCCN)C(N)=O | Acinetobacter baumannii | – | 649, Mueller-Hinton broth | 24 h, 37 °C | 0.3 µM
CN(C)c1cc(CNCc2ccncc2)c(O)c2c1C[C@H]1C[C@H]3[C@H](N(C)C)C(O)=C(C(N)=O)C(=O)[C@@]3(O)C(O)=C1C2=O | Streptococcus pneumoniae | microbial growth, broth dilution | – | – | 2 µg/mL
Cc1ccc(Cn2ccc([C@H](C)[C@](O)(Cn3cnnn3)c3ccc(F)cc3F)n2)cc1 | Candida tropicalis | growth, broth microdilution | 2718 | 24 h, 30 °C, ≥50% inhibition | < 0.008 µg/mL
CC1CCN(Cc2cc(N(C)C)c3c(c2O)C(=O)C2=C(O)[C@]4(O)C(=O)C(C(N)=O)=C(O)[C@@H](N(C)C)[C@@H]4C[C@@H]2C3)CC1 | Streptococcus pneumoniae | – | ATCC 700905, Tet M ribosome protection | – | < 0.06 µg/mL
N#Cc1ccc2cccc(O)c2n1 | Saccharomyces cerevisiae | microbial growth | ATCC2601 | – | ≥ 645 µM
c1ccc(CN2CCOCCOCCN(CCCCCCCCCCCCCCN3CCOCCOCCN(CCCCCCCCCCCCCCN4CCOCCOCCN(Cc5ccccc5)CCOCCOCC4)CCOCCOCC3)CCOCCOCC2)cc1 | Streptococcus pneumoniae | – | R:Pen | – | 3 µM
CC[C@@H](C)[C@@H](NC(=O)[C@@H](C)N)C(=O)N[C@H](CCCCN)C(=O)N[C@@H](C(=O)N[C@H](CCCNC(=N)N)C(=O)N[C@H](CCCCN)C(=O)N[C@H](CC(C)C)C(=O)N[C@H](Cc1ccccc1)C(=O)N[C@H](CCCCN)C(=O)N[C@H](CCCCN)C(=O)N[C@H](CC(C)C)C(=O)N[C@H](CC(C)C)C(=O)N[C@H](CCCNC(=N)N)C(N)=O)[C@H](C)CC | Escherichia coli | – | ATCC 25922 | 1 h, 37 °C, non-dividing cells in PBS | 12.5 to 25 µg/mL
CN(C)c1cc(CNCc2ccco2)c(O)c2c1C[C@H]1C[C@H]3[C@H](N(C)C)C(O)=C(C(N)=O)C(=O)[C@@]3(O)C(O)=C1C2=O | Streptococcus pneumoniae | – | ATCC 700905, Tet M ribosome protection | – | 0.5 µg/mL
CC[C@@H](C)[C@@H](NC(=O)[C@@H](C)NC(=O)[C@@H](CCCCN)NC(=O)[C@@H](CC(C)C)NC(=O)[C@@H](C)NC(=O)[C@H](NC(=O)[C@@H](Cc1c[nH]cn1)NC(=O)[C@@H](CC(C)C)NC(=O)[C@H](NC(=O)[C@H](NC(=O)[C@@H](CCCCN)NC(=O)[C@H](NC(=O)[C@@H](C)NC(=O)[C@@H](CO)NC(=O)[C@@H](CCCCN)NC(=O)[C@@H](Cc1ccccc1)NC(=O)[C@H](NC(=O)[C@@H](CCCCN)NC(=O)[C@@H](CC(C)C)NC(=O)[C@@H](Cc1ccccc1)NC(=O)[C@@H](CO)NC(=O)[C@@H](CCCCN)NC(=O)[C@@H](Cc1c[nH]c2ccccc12)NC(=O)[C@@H](CCCCN)NC(C)=O)[C@H](C)O)C(C)C)[C@H](C)O)C(C)C)[C@H](C)O)C(=O)N[C@H](CO)C(=O)N[C@H](CO)C(N)=O | Acinetobacter baumannii | – | 821, Mueller-Hinton broth | 24 h, 37 °C | 0.7 µM
C[C@@H](c1ccn(Cc2ccc(Cl)cc2Cl)n1)[C@](O)(Cn1cnnn1)c1ccc(F)cc1F | Candida tropicalis | growth, broth microdilution | 2718 | 24 h, 30 °C, ≥50% inhibition | < 0.008 µg/mL
CN(C)c1cc(CN2CCCCC2)c(O)c2c1C[C@H]1C[C@H]3[C@H](N(C)C)C(O)=C(C(N)=O)C(=O)[C@@]3(O)C(O)=C1C2=O | Streptococcus pneumoniae | – | ATCC 700905, Tet M ribosome protection | – | < 0.06 µg/mL
CC(C)c1ccc(Cn2ccc([C@H](C)[C@](O)(Cn3cnnn3)c3ccc(F)cc3F)n2)cc1 | Candida tropicalis | growth, broth microdilution | 2718 | 24 h, 30 °C, ≥50% inhibition | < 0.008 µg/mL
CN(C)c1cc(CN2CCCCCC2)c(O)c2c1C[C@H]1C[C@H]3[C@H](N(C)C)C(O)=C(C(N)=O)C(=O)[C@@]3(O)C(O)=C1C2=O | Streptococcus pneumoniae | microbial growth, broth dilution | – | – | 0.125 µg/mL
CC(=O)N[C@H](CCCCN)C(=O)N[C@H](CC(C)C)C(=O)N[C@H](CCCCN)C(=O)N[C@H](CO)C(=O)N[C@H](CC(C)C)C(=O)N[C@H](CC(C)C)C(=O)N[C@H](CCCCN)C(=O)N[C@@H](C(=O)N[C@H](CC(C)C)C(=O)N[C@H](CO)C(=O)N[C@H](CCCCN)C(=O)N[C@H](C)C(=O)N[C@H](CCCCN)C(=O)N[C@H](CCCCN)C(=O)N[C@H](CCCCN)C(=O)N[C@H](CC(C)C)C(=O)N[C@H](CC(C)C)C(=O)N[C@H](CCCCN)C(=O)N[C@@H](C(=O)N[C@H](C)C(=O)N[C@H](CC(C)C)C(=O)N[C@H](CCCCN)C(=O)N[C@H](C)C(=O)N[C@H](CC(C)C)C(=O)N[C@H](CO)C(=O)N[C@H](CCCCN)C(N)=O)[C@H](C)O)[C@H](C)O | Acinetobacter baumannii | broth microdilution | ATCC 17978 | 24 h, 37 °C | 0.7 µM
C[C@@H](c1ccn(Cc2ccc(F)cc2)n1)[C@](O)(Cn1cnnn1)c1ccc(F)cc1F | Candida tropicalis | growth, broth microdilution | 2718 | 24 h, 30 °C, ≥50% inhibition | < 0.008 µg/mL
